Results gathered from unrelated publications.
Numbered parts are unrelated; each lists some results of a single study. Changes are numbered by the printed parent chain.
Sequence of UniProt Q99640 (whole entry, looked up): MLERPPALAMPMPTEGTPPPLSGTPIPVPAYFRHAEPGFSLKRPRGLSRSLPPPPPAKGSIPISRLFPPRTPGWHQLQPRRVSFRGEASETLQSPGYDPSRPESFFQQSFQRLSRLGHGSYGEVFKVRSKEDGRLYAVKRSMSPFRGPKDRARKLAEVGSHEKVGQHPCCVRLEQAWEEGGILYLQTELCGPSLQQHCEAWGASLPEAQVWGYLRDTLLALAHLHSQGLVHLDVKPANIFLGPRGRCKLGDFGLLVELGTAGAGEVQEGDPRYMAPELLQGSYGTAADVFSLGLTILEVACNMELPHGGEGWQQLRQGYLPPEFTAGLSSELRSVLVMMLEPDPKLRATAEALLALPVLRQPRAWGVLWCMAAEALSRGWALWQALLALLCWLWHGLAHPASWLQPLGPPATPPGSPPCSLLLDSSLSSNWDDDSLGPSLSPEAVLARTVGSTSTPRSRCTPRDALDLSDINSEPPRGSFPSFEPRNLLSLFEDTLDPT

Sample 1
Target: TATA-box-binding protein 1 (TBP1, Arabidopsis thaliana, UniProt P28147, residues 1-200, full length assumed)
Method: protein-binding microarray
Form: double-stranded DNA, one strand shown
Sample: in vitro
Tested at: not given
Notes: k-mer, scored over probes, only values ≥0.25
Direction: higher = stronger binding
Residues (chain): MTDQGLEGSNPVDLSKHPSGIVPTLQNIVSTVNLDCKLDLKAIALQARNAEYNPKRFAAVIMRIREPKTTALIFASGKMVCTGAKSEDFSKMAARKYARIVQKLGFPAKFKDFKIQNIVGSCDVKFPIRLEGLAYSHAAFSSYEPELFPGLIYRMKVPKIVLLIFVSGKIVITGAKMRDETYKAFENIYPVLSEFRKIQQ
| Oligonucleotide | E-score |
| --- | --- |
| ATAAGAG | 0.34 |
| GAAATAA | 0.267 |
| ATAAATG | 0.437 |
| AATTAAA | 0.415 |
| GCATAAA | 0.365 |
| ATAATCA | 0.286 |
| ATAATCC | 0.278 |
| CAAAATA | 0.278 |

Sample 2
Target: CCND2, cyclin fold, Cln2 fusion (human)
Method: yeast growth competition, sequencing
Sample: yeast
Notes: weak parent motif
Baseline: not given
Direction: higher = stronger binding
Parent: viral docking peptide; KKVKRRLFETREL
| Change | normalised enrichment score |
| --- | --- |
| R11A | 0.00203 |
| R6A | -0.0849 |
| L7A | 0.346 |
| K1A | 0.132 |
| R5K | 0.135 |
| E9A | -0.107 |
| K4A | -0.22 |

Sample 3
Target: TAR DNA-binding protein 43, full length, His tag (TARDBP, Homo sapiens, UniProt Q13148, residues 1-414)
Method: RNA Bind-n-Seq
Form: RNA
Sample: in vitro
Tested at: 20 nM
Notes: 6-mer, flanks averaged, single round
Together with: 150 mM LiCl
Baseline: input library
Direction: higher = stronger binding
| Oligonucleotide | 6-mer enrichment (R) |
| --- | --- |
| UAGUAG | 1.01 |
| CGAAUU | 0.855 |
| UGAUGG | 1.12 |
| UUUGGU | 1.32 |
| CUCGGA | 0.892 |
| UCACGC | 0.851 |
| CAGACG | 0.83 |
| ACAACG | 0.803 |

Single results of other studies
| Structure (SMILES) | target | assay | system | setting | endpoint | value |
| --- | --- | --- | --- | --- | --- | --- |
| C[C@@H]1C[C@@H]([C@H](O)CC2CC(=O)NC(=O)C2)C(=O)[C@@H](C)C1 | Membrane-associated tyrosine- and threonine-specific cdc2-inhibitory kinase (PKMYT1, Homo sapiens, UniProt Q99640) | immunoblotting | HCC1569 | 50 µg/mL, 24 h | remaining protein level | 37.1% |

Some of these lines once more (sample 1):
| Oligonucleotide | E-score |
| --- | --- |
| ATAATCA | 0.286 |
| GAAATAA | 0.267 |
